Measured values pooled from the literature.
Protocols differ between the studies behind these lines. ± marks the error that the study gave.
Cell line: HEK293

| SMILES | test | setting | how to read | quantity | value |
| --- | --- | --- | --- | --- | --- |
| CCOc1ccc(-c2nc(CNCCc3ccc(F)cc3)cs2)cc1 | MTT |  | relative to: CC50 over IC50 | selectivity index | 2.28 |
| COc1cc(NC(=O)c2ccc(C)c([N+](=O)[O-])c2)ccc1S(N)(=O)=O | cell viability, MTT | 48 h |  | IC50 | > 100 µM |
| CC(C)C[C@@H](C=O)NC(=O)[C@H](CC(C)C)NC(=O)[C@H](CC(C)C)NC(=O)OCc1ccccc1 | measured: CD4 signal peptide-FLuc reporter | concentration not given, 5 h, time-course chase, unit not given, with: cycloheximide | relative to: untreated | FLuc activity | 1.37 |
| O=C(NCCCNS(=O)(=O)c1ccc(OC(F)(F)F)cc1)C1=Cc2ccccc2S1(=O)=O | immunoblotting, measured: REST protein | 10 µM, 2 days, daily replenishment | relative to: DMSO | protein level | ~5% |
| N=C(N)Nc1ccc(NC(=O)c2ccc(Cl)c(Cl)c2)cc1OCc1ccccc1C(F)(F)F | cell growth, MTT | 48 h |  | IC50 | > 500 µM |
| O=c1[nH]c(CCl)nc2scc(-c3ccccc3)c12 | cell viability, resazurin | 24 h |  | EC50 | 4.9 ± 0.6 µM |
| COc1ccc(C(=O)Nc2ccc(NC(=N)N)c(OCc3cc(C)ccc3C)c2)cc1 | cell growth, MTT | 48 h |  | IC50 | > 500 µM |
| O=c1[nH]c(CCl)nc2scc(-c3ccccc3F)c12 | cell viability, resazurin | 24 h |  | EC50 | 5 ± 0.6 µM |
| COc1cc(NC(=O)c2cccc(Cl)c2)ccc1S(N)(=O)=O | cell viability, MTT | 48 h |  | IC50 | > 100 µM |

A few entries again:
| SMILES | test | setting | how to read | quantity | value |
| --- | --- | --- | --- | --- | --- |
| COc1cc(NC(=O)c2cccc(Cl)c2)ccc1S(N)(=O)=O | cell viability, MTT | 48 h |  | IC50 | > 100 µM |
| COc1ccc(C(=O)Nc2ccc(NC(=N)N)c(OCc3cc(C)ccc3C)c2)cc1 | cell growth, MTT | 48 h |  | IC50 | > 500 µM |
